Results pooled from the literature.
“And” joins repeats or separate records; there may be more than shown. Numbers after ± are the reported error.

CN1CC[C@@H](c2c(O)cc(O)c3c(=O)cc(-c4ccc(C(F)(F)F)cc4Cl)oc23)[C@@H]1CO  patients with adverse event (measured: Dyspnea; B-cell malignancies; oral, 150 mg, intermittent dosing): 0%
CCCCOc1nc(N)c2c(n1)N(Cc1cccc(CN3CCCC3)c1)CC(=O)N2  deaths (human; oral, 2 mg, drug interaction trial): 0%
C[C@]1(CO)Cc2ncn(-c3ccc(C#N)c(Cl)c3)c2C(=O)O1  subjects with any TEAE (human; 10 mg multiple doses, fasted): 11.1%
COc1cc2c(Oc3ccc4[nH]c(C)cc4c3F)ccnc2cc1OCC1(N)CC1  grade 1 or 2 Thrombocytopenia (paediatric recurrent refractory sarcoma; 8 mg/kg): 26.7%
COc1ccc(-c2c(-c3ccc(C#N)c(F)c3)nc(N3CCC(N)CC3)n(C)c2=O)cc1F  grade 3-4 TRAE incidence (measured: conjunctival hemorrhage; human patients; oral, dose not given, dose escalation): 0%
O=c1ccc2cc3ccoc3cc2o1  accuracy (three freeze-thaw cycles; rat plasma; 200 ng/mL, -70 °C freeze): 91.6%
COc1cccc([C@@H](C)NCCCc2ccccc2Cl)c1  CC50 (African green monkey cells; 5 days): 28.2 µM
CCc1ccc(CC/C=C/c2ccc3c(c2)C(=O)CC3)cc1  Lymphocyte percentage (Sprague-Dawley rat, female; oral, 120 mg/kg/day, 14 days): 80%
CC[C@H](C)[C@H](NC(=O)[C@H](Cc1ccccc1)NC(=O)[C@H](CCC(=O)O)NC(=O)[C@H](CCCNC(=N)N)NC(=O)[C@H](C)NC(=O)[C@H](C)NC(=O)[C@H](CCC(N)=O)NC(=O)[C@H](CCC(=O)O)NC(=O)[C@H](CCC(=O)O)NC(=O)[C@H](CC(C)C)NC(=O)[C@H](Cc1ccc(O)cc1)NC(=O)[C@H](CO)NC(=O)[C@H](CO)NC(=O)[C@@H](NC(=O)[C@H](CC(=O)O)NC(=O)[C@H](CO)NC(=O)[C@@H](NC(=O)[C@H](Cc1ccccc1)NC(=O)[C@@H](NC(=O)CNC(=O)[C@H](CCC(=O)O)NC(=O)[C@H](C)NC(=O)CCc1cnc[nH]1)[C@@H](C)O)[C@@H](C)O)C(C)C)C(=O)N[C@@H](C)C(=O)N[C@@H](Cc1c[nH]c2ccccc12)C(=O)N[C@@H](CC(C)C)C(=O)N[C@H](C(=O)N[C@@H](CCCNC(=N)N)C(=O)NCC(=O)N[C@@H](CCCNC(=N)N)C(=O)N[C@@H](CCCCNC(=O)COCCOCCNC(=O)COCCOCCNC(=O)CC[C@H](NC(=O)CCCCCCCCCCCCCCCCC(=O)O)C(=O)O)C(=O)NCC(=O)NCC(=O)N[C@@H](CO)C(=O)N[C@@H](CCCCNC(=O)[C@H](CCCCNC(=O)[C@H](CCCCNc1c(NCCCCCN(O)C(=O)CCC(=O)NCCCCCN(O)C(=O)CCC(=O)NCCCCCN(O)C(C)=O)c(=O)c1=O)Nc1c(NCCCCCN(O)C(=O)CCC(=O)NCCCCCN(O)C(=O)CCC(=O)NCCCCCN(O)C(C)=O)c(=O)c1=O)NC(=O)[C@H](CCCCNc1c(NCCCCCN(O)C(=O)CCC(=O)NCCCCCN(O)C(=O)CCC(=O)NCCCCCN(O)C(C)=O)c(=O)c1=O)Nc1c(NCCCCCN(O)C(=O)CCC(=O)NCCCCCN(O)C(=O)CCC(=O)NCCCCCN(O)C(C)=O)c(=O)c1=O)C(=O)O)C(C)C [zirconium-89 labelled]  tissue uptake (ex vivo gamma counting; Sprague-Dawley rat, male, kidney; intravenous, 1 nmol, 24 h): 16.5 %ID/g and 17.1 %ID/g and 14.8 %ID/g and 16.9 %ID/g and 15.7 %ID/g
O=c1nc(NO)ccn1[C@@H]1O[C@H](CO)[C@@H](O)[C@H]1O  autosampler stability (rat placenta dialysate; 1000 ng/mL, 6 h, 10 °C, high QC concentration, together with: molnupiravir): 102 ± 1.33%
COc1ncnn2ccc(-c3cnc4nc(C)n(Cc5nnc([C@@H](C)F)o5)c4c3)c12  patients with nausea (human; oral, dose not given, grade 4): 0%
O=C1Nc2cc3[nH]nc(-c4ccncc4)c3cc2CN1Cc1ccccc1  patients with blurred vision (CTCAE v4.03; advanced solid tumour patients; intravenous, 6.4 mg/kg): 33%
O=S(=O)(Nc1ccccc1)c1ccc(NC(=S)Nc2ccccc2)cc1  relative organ weight (mouse, male, small intestine; oral, 20 mg/kg daily, 14 days; relative to: body weight): 2.26%
C[C@@H]1OC(=O)NN=C1c1ccc(-c2ccc(F)cc2)c(C(F)(F)F)c1  patients with adverse event (phase I trial, measured: Ascites worst grade 2; human patients; dose not given, all dose groups): 20%
CC[C@H]1C[N@@]2CC[C@H]1C[C@H]2[C@H](O)c1ccnc2ccc(OCCC(C)C)cc12  CC50 (African green monkey cells; 5 days): 11.4 µM

Some of these lines once more:
CC[C@H](C)[C@H](NC(=O)[C@H](Cc1ccccc1)NC(=O)[C@H](CCC(=O)O)NC(=O)[C@H](CCCNC(=N)N)NC(=O)[C@H](C)NC(=O)[C@H](C)NC(=O)[C@H](CCC(N)=O)NC(=O)[C@H](CCC(=O)O)NC(=O)[C@H](CCC(=O)O)NC(=O)[C@H](CC(C)C)NC(=O)[C@H](Cc1ccc(O)cc1)NC(=O)[C@H](CO)NC(=O)[C@H](CO)NC(=O)[C@@H](NC(=O)[C@H](CC(=O)O)NC(=O)[C@H](CO)NC(=O)[C@@H](NC(=O)[C@H](Cc1ccccc1)NC(=O)[C@@H](NC(=O)CNC(=O)[C@H](CCC(=O)O)NC(=O)[C@H](C)NC(=O)CCc1cnc[nH]1)[C@@H](C)O)[C@@H](C)O)C(C)C)C(=O)N[C@@H](C)C(=O)N[C@@H](Cc1c[nH]c2ccccc12)C(=O)N[C@@H](CC(C)C)C(=O)N[C@H](C(=O)N[C@@H](CCCNC(=N)N)C(=O)NCC(=O)N[C@@H](CCCNC(=N)N)C(=O)N[C@@H](CCCCNC(=O)COCCOCCNC(=O)COCCOCCNC(=O)CC[C@H](NC(=O)CCCCCCCCCCCCCCCCC(=O)O)C(=O)O)C(=O)NCC(=O)NCC(=O)N[C@@H](CO)C(=O)N[C@@H](CCCCNC(=O)[C@H](CCCCNC(=O)[C@H](CCCCNc1c(NCCCCCN(O)C(=O)CCC(=O)NCCCCCN(O)C(=O)CCC(=O)NCCCCCN(O)C(C)=O)c(=O)c1=O)Nc1c(NCCCCCN(O)C(=O)CCC(=O)NCCCCCN(O)C(=O)CCC(=O)NCCCCCN(O)C(C)=O)c(=O)c1=O)NC(=O)[C@H](CCCCNc1c(NCCCCCN(O)C(=O)CCC(=O)NCCCCCN(O)C(=O)CCC(=O)NCCCCCN(O)C(C)=O)c(=O)c1=O)Nc1c(NCCCCCN(O)C(=O)CCC(=O)NCCCCCN(O)C(=O)CCC(=O)NCCCCCN(O)C(C)=O)c(=O)c1=O)C(=O)O)C(C)C [zirconium-89 labelled]  tissue uptake (ex vivo gamma counting; Sprague-Dawley rat, male, kidney; intravenous, 1 nmol, 24 h): 16.5 %ID/g and 17.1 %ID/g and 14.8 %ID/g and 16.9 %ID/g and 15.7 %ID/g
